Results pooled from the literature.
Each line is one published result; not all experiments were run side by side.
Cell line: NCI-H23

SMILES | assay | conditions | scale | measurement | value
[Br-].c1ccc2cc(Cn3c[n+](Cc4ccc5ccccc5c4)c4ccccc43)ccc2c1 | NCI60 five-dose screen | – | – | TGI | 2.51 µM
COC(=O)/C=C1\C(=O)C=C2C3CC4CC(CCC4(C)N21)C3(C)NC(C)=O (stereo not shown) | cell growth, NCI screen | – | – | IC50 | 33.1 µM
NNc1nc(-c2ccc(Cl)cc2)c2c(NC(=O)c3ccccc3)nnc-2[nH]1 | SRB | 10 µM, NCI60 single-dose screen | baseline: untreated | cell growth | 100%
COc1ccc(OC)c(-c2nc3ccc(-c4nc5ccc(N6CCN(C)CC6)cc5[nH]4)cc3[nH]2)c1 | SRB | 10 µM, 48 h | – | growth percent | 102%
C#C[C@@]1(O)[C@@H](CO)O[C@@H](n2ccc3c(N)ncnc32)[C@@H]1O | SRB | NCI-60 screen | – | TGI | 4.32 µM
COCCOCCOCc1n(Cc2ccc3ccccc3n2)c2ccccc2[n+]1Cc1ccc2ccccc2c1.[Br-] | NCI60 five-dose screen | – | – | TGI | 10.3 µM
CCn1cc(-c2cc(Cn3ccoc3=N)cc3c2CCN([C@@H](C)c2cc(OC)ccn2)C3=O)c(C(F)(F)F)n1 | cell growth, inhibitor | 120 h | – | EC50 | 0.0141 µM
Cc1cc(=O)[nH]c(=O)n1Cc1cn(-c2cc3ccccc3oc2=O)nn1 | NCI60 single-dose screen | 10 µM | – | growth percentage | 94.4%
CCCN1CCN(c2ccc3[nH]c(-c4ccc5[nH]c(-c6ccc(OCC)c(OCC)c6)nc5c4)nc3c2)CC1 | SRB | 10 µM, 48 h | – | growth percent | -53.3%
Cc1n(Cc2ccc3ccccc3c2)c2ccccc2[n+]1Cc1ccc2ccccc2c1.[Br-] | NCI60 five-dose screen | – | – | TGI | 2.76 µM
O=C(Nc1nnc2n3c(=S)[nH][nH]c3nc(-c3ccc(Cl)cc3)c1-2)c1ccccc1 | SRB | 10 µM, NCI60 single-dose screen | baseline: untreated | cell growth | 88.5%
O=c1ccn(Cc2cn(-c3c4ccccc4nc4ccccc34)nn2)c(=O)[nH]1 | NCI60 single-dose screen | 10 µM | – | growth percentage | 94%
CCCN1CCN(c2ccc3[nH]c(-c4ccc5[nH]c(-c6cc(OC)c(OC)c(OC)c6)nc5c4)nc3c2)CC1 | SRB | 10 µM, 48 h | – | growth percent | 80.1%
Cc1cc(C)n(-c2nc(-c3ccc(Cl)cc3)c3c(NC(=O)c4ccccc4)nnc-3[nH]2)n1 | SRB | 10 µM, NCI60 single-dose screen | baseline: untreated | cell growth | 94%
S=C([S][Au-][P+](CCCCCC[P+]([Au-][S]C(=S)n1cccn1)(c1ccccc1)c1ccccc1)(c1ccccc1)c1ccccc1)n1cccn1 | cell growth, NCI-60 screen | non-small cell lung cancer | – | log10 TGI | > -4
CCOC(=O)CSc1nc(-c2ccc(Cl)cc2)c2c(NC(=O)c3ccccc3)nnc-2[nH]1 | SRB | 10 µM, NCI60 single-dose screen | baseline: untreated | cell growth | 94.3%
COc1cnc2cccc(N3CCc4c(cc(Cn5ccnc5C)cc4-c4cn(C)nc4C(F)(F)F)C3=O)c2c1 | cell growth, inhibitor | 120 h | – | EC50 | 0.205 µM
O=C1NC(c2ccccc2)(c2ccccc2)C(=O)N1Cc1cn(-c2cc3ccccc3oc2=O)nn1 | NCI60 single-dose screen | 10 µM | – | growth percentage | 88.4%
O=C(/C=C/C=C/C=C/C1CCCCC1)NC1=C[C@@](O)(/C=C/C=C/C=C/C(=O)NC2=C(O)CCC2=O)[C@@H]2O[C@@H]2C1=O | cell growth, CellTiter-Glo | 78 h | – | GI50 | 14 µM
CCCN1CCN(c2ccc3nc(-c4ccc5nc(-c6cc(OC)ccc6OC)[nH]c5c4)[nH]c3c2)CC1 | SRB | 10 µM, 48 h | – | growth percent | 103%
O=C(Nc1nnc2n3c(Cc4ccccc4)n[nH]c3nc(-c3ccc(Cl)cc3)c1-2)c1ccccc1 | SRB | 10 µM, NCI60 single-dose screen | baseline: untreated | cell growth | 95%
CCOc1ccc(-c2nc3cc(-c4nc5cc(N6CCN(C)CC6)ccc5[nH]4)ccc3[nH]2)cc1OCC | SRB | 10 µM, 48 h | – | growth percent | -7.66%
Cn1cncc1C1=CN(c2ncnc3[nH]cnc23)CCS1 | – | lung cancer | – | TGI | 85.1 µM
CCCC(CCC)C(=O)OCc1cn(-c2c3ccccc3nc3ccccc23)nn1 | NCI60 single-dose screen | 10 µM | – | growth percentage | 96.4%
CCCCN1CCN(c2ccc3[nH]c(-c4ccc5[nH]c(-c6cc(OC)c(OC)c(OC)c6)nc5c4)nc3c2)CC1 | SRB | 10 µM, 48 h | – | growth percent | 82.9%

A few entries again:
SMILES | assay | conditions | scale | measurement | value
Cc1n(Cc2ccc3ccccc3c2)c2ccccc2[n+]1Cc1ccc2ccccc2c1.[Br-] | NCI60 five-dose screen | – | – | TGI | 2.76 µM
CCn1cc(-c2cc(Cn3ccoc3=N)cc3c2CCN([C@@H](C)c2cc(OC)ccn2)C3=O)c(C(F)(F)F)n1 | cell growth, inhibitor | 120 h | – | EC50 | 0.0141 µM
O=C(Nc1nnc2n3c(Cc4ccccc4)n[nH]c3nc(-c3ccc(Cl)cc3)c1-2)c1ccccc1 | SRB | 10 µM, NCI60 single-dose screen | baseline: untreated | cell growth | 95%
